# Earlier results, collected from citations in different studies.
# Each numbered part shows a few of the values that one paper quotes. ± marks the error that the study gave.
# Sequence of UniProt Q9UBF8 (whole entry, looked up): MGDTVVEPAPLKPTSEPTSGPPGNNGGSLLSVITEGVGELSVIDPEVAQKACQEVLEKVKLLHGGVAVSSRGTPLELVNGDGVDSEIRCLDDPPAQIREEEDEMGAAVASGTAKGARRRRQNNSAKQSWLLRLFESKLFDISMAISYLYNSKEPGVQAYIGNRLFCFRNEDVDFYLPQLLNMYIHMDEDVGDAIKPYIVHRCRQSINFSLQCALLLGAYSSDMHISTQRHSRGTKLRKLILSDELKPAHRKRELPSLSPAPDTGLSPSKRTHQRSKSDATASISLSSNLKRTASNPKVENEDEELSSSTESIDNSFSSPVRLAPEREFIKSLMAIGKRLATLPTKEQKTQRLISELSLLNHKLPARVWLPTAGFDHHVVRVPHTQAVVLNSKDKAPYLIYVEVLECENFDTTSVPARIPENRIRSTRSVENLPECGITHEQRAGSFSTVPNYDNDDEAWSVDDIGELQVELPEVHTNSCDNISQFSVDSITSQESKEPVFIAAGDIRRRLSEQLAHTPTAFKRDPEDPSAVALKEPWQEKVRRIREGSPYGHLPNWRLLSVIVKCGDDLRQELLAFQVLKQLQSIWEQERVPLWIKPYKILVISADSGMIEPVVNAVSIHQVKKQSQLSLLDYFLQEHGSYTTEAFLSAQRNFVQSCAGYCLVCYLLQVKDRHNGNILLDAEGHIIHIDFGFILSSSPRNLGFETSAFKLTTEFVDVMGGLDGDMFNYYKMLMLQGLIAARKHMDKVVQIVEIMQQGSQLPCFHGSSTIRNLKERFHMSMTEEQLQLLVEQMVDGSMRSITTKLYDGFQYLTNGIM
# Sequence of UniProt P35372 (whole entry, looked up): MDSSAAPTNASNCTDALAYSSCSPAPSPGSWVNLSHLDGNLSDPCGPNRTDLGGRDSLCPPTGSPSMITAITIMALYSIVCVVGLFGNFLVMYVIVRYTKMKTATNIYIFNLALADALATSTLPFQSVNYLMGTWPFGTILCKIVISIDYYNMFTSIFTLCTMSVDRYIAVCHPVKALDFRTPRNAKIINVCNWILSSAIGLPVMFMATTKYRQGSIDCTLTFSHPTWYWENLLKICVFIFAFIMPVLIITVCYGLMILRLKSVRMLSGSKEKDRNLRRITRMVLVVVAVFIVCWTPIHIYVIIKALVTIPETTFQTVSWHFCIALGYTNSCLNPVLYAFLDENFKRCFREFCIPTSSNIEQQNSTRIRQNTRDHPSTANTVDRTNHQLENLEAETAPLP
# Sequence of UniProt Q01959 (whole entry, looked up): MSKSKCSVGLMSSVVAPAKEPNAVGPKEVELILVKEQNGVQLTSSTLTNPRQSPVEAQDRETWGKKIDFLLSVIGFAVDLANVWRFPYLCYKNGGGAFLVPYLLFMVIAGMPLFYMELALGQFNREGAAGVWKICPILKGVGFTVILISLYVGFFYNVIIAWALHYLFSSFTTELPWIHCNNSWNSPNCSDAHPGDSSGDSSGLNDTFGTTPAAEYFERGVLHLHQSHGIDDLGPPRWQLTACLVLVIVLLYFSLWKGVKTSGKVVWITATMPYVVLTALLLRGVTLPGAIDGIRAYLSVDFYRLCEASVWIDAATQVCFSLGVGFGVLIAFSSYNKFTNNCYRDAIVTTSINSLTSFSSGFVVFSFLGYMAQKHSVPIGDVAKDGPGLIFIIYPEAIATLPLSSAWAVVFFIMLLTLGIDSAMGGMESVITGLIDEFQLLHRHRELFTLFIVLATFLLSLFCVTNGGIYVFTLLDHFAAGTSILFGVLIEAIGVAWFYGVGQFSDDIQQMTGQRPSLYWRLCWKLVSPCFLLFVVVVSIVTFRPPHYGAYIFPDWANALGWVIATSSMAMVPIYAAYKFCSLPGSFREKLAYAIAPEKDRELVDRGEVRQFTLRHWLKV

# Set 1
# Target: HLA class I histocompatibility antigen, A alpha chain, allele A*80:01 (Homo sapiens, UniProt P04439)
# Observed: peptide-MHC binding
# Form: peptide
Sequence,IC50 [µM]
LIDGRTSFY,0.0149
LSDNLSLVY,0.169
TTFPVNGGY,2.19
EYAPFARLL,> 20
AFFAERLYY,0.0197
STNTLPTEY,> 20
KMKDPKMYH,> 20
TMGPHPAGV,> 20
MQIDGGEGV,> 20
ITDFNIDTY,0.308
SVFALLPPQ,> 20
YQIEGAWRA,> 20
KLADYLLLQ,> 20
RTFGQPLFF,0.414
ETWVETWAF,> 20
HSNLNDTTY,> 20
RTFSILNRK,> 20
GAWCYDYTV,> 20
TVYGLGADV,> 20
LLFRMILNY,0.026
NRDVSFQDL,> 20
NSESGNSRY,> 20
PIPVGDIYK,20
ATRSHRPLI,> 20
CASSSDWFY,> 20

# Mixed results
# Tubulin alpha-1B chain/TUBB2B: Tubulin alpha-1B chain/TUBB2B (Bos taurus, UniProt P81947+Q6B856)
# Sequence of UniProt Q6B856 (whole entry, looked up): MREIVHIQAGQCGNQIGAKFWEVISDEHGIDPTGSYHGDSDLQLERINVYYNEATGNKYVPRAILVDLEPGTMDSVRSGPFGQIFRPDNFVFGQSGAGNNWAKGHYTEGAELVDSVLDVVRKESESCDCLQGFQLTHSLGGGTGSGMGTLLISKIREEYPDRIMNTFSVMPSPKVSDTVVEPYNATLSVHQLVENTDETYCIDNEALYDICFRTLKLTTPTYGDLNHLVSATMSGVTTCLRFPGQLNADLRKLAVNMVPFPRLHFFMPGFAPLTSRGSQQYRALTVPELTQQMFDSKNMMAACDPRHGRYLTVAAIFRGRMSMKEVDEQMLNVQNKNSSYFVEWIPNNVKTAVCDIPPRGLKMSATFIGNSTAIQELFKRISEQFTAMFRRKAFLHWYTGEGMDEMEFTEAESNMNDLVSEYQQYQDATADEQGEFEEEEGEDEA
# Sequence of UniProt P81947 (whole entry, looked up): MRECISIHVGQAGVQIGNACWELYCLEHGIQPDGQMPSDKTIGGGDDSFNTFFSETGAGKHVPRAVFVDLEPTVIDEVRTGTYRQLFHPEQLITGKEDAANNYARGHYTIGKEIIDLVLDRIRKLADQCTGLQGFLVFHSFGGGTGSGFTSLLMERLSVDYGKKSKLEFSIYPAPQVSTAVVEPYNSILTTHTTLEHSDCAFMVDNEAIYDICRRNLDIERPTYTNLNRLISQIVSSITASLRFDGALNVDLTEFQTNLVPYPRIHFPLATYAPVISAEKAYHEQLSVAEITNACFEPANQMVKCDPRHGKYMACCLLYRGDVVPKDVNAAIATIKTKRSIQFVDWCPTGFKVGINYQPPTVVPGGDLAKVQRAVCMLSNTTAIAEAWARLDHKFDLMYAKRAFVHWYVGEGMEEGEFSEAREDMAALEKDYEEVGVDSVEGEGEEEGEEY
# Ar: Androgen receptor (Ar, Rattus norvegicus, UniProt P15207)
# Sequence of UniProt P15207 (whole entry, looked up): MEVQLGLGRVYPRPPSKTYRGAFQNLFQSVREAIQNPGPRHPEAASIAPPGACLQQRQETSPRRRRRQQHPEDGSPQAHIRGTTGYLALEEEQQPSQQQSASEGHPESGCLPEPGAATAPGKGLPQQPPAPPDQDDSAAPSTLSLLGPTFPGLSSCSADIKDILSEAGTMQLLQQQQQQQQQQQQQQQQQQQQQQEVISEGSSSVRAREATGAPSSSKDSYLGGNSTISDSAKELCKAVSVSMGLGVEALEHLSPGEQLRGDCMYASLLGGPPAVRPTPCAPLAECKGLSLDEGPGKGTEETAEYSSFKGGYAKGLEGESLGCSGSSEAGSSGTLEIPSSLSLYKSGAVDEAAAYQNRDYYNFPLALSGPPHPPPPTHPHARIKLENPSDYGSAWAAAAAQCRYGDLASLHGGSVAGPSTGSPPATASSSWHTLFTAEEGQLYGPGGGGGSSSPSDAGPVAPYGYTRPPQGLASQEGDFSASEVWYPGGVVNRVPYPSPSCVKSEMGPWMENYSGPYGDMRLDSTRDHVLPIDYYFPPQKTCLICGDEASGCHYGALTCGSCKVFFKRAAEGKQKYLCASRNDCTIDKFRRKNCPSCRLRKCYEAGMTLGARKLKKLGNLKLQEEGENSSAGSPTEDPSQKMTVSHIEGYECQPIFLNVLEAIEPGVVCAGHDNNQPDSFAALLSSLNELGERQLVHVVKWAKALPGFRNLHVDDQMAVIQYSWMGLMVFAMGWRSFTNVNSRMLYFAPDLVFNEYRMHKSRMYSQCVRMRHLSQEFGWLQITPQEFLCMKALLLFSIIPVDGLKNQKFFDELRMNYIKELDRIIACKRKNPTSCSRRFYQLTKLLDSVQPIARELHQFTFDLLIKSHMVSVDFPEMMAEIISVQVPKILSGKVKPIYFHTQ
Compound,tested on,assay,system,conditions,how to read,endpoint,value
CN1COCN(Cc2cnc(Cl)s2)/C1=N\[N+](=O)[O-],,,soil,"0.12 nominal, 28 days, Folsomia candida soil test",,recovery,67%
C[C@@H](NC(=O)[C@@H](N)Cc1ccc(O)cc1)C(=O)NCC(=O)N(C)[C@@H](Cc1ccccc1)C(=O)NCCO,"Mu-type opioid receptor (OPRM1, Homo sapiens, UniProt P35372)",binding,,,,Hill coefficient,0.6
CO[C@@H](C)Cn1c(=O)n(C)c2cnc3ccc(-c4cncc(C(C)(C)O)c4)cc3c21,,,Japanese cancer patients,,,maximum tolerated dose,200 mg twice daily
COc1ccc2c(c1O)CCCC=C2c1cc(OC)c(OC)c(OC)c1,Tubulin alpha-1B chain/TUBB2B,"tubulin polymerization, inhibitor",,,,IC50,0.85 ± 0.02 µM
COC(=O)C[C@@H]1N=C(c2ccc(Cl)cc2)c2c(sc(C)c2C)-n2c(C)nnc21,"Bromodomain-containing protein 4, BD1 (BRD4, Homo sapiens, UniProt O60885)",binding,,,,Kd,0.0361 µM
CCCC(C(=O)c1ccc2c(c1)OCO2)N1CCCC1.Cl (racemic),,,"male Sprague-Dawley rat, plasma","subcutaneous, 1 mg/kg",,plasma concentration,~250 ng/mL
CCC[C@@H]1CC(=O)N([C@@H](CC)C(N)=O)C1,SV2B G240C,,,concentration not given,baseline: wild-type SV2B,Ki change,no effect
CC(C)(C)[C@H](NC(=O)C(F)(F)F)C(=O)N1C[C@H]2[C@@H]([C@H]1C(=O)N[C@H](C#N)C[C@@H]1CCNC1=O)C2(C)C,,,adults at high risk of severe disease,dose not given,baseline: placebo,hypertension adverse events,1%
Nc1ncc(-c2nc(N3CCOCC3)nc(N3CCOCC3)n2)c(C(F)F)n1,"Phosphatidylinositol 4-kinase beta (PI4KB, Homo sapiens, UniProt Q9UBF8)",KinomeScan competition binding,,10 µM,,remaining binding,75%
CC(NC(C)(C)C)C(=O)c1cccc(Cl)c1 (centres unmarked),nicotinic acetylcholine receptor α4β2,antagonist,,,,IC50,17.8 µM
CC12CC1(C)C(=O)N(c1cc(Cl)cc(Cl)c1)C2=O (centres unmarked),Ar,binding,,concentration not given,,activity class,active
CC1(C)NC(=O)C(Cc2ccc(O)cc2)NC(=O)CNC(=O)C(Cc2ccc3ccccc3c2)NC(=O)C(CCCN=C(N)N)NC1=O (centres unmarked),human CXCR4 W94A mutant,,,,,EC50,0.02 µM
Cc1cccc2c1ccc1cc(C(C)C)ccc12,,,pooled human liver microsomes,2.5 µM,,metabolism rate,56.7 pmol/min/mg
O=C(c1cc(F)cc(N2CCNCC2)c1)N1CCN(C(=O)c2ccc(O[C@H]3CCNC3)c(C3CCCCC3)c2)CC1,human β-catenin/BCL9 interaction,"inhibitor, AlphaScreen",,,,Ki,5.2 ± 0.74 µM
O=c1c(-c2ccc(O)cc2)coc2cc(O)ccc12,Ar,validation reference set,,concentration not given,,AR binding call,inactive
COc1ccc2c(c1N)CCCC=C2c1cc(OC)c(OC)c(OC)c1,Tubulin alpha-1B chain/TUBB2B,"tubulin polymerization, inhibitor",,,,IC50,1.3 ± 0.11 µM
Cc1ccc(NC(=O)c2ccc(C)c(-c3ccc(F)c(F)c3)c2)cc1-c1ccc(F)cc1,human β-catenin/BCL9 interaction,"inhibitor, AlphaScreen",,,,Ki,400 ± 16 µM
O=C(O)c1cn(C2CC2)c2cc(N3CCNCC3)c(F)cc2c1=O,Escherichia coli,bacterial growth,colistin-resistant,,,MIC,> 8 µg/mL
CCCCCc1cc(O)c2c(c1)OC(C)(C)[C@@H]1CCC(C)=C[C@@H]21,,,human,"inhaled, dose not given, marijuana smoking",,intraocular pressure reduction,~40%
c1ccc2ccccc2c1,,measured: two major metabolites summed,human liver microsomes,2.5 µM,,metabolite formation rate,0.345 nmol/mg/min
Fc1ccc(C(OCCN2CCN(CCCc3ccccc3)CC2)c2ccc(F)cc2)cc1,"Sodium-dependent dopamine transporter (SLC6A3, Homo sapiens, UniProt Q01959)",binding,,,,Hill coefficient,0.9
CO/N=C(\C(=O)N[C@@H]1C(=O)N2C(C(=O)O)=C(CSc3nc(=O)c(=O)[nH]n3C)CS[C@H]12)c1csc(N)n1,Escherichia coli,bacterial growth,colistin-resistant,,,MIC,16 µg/mL
CC(C)c1nc(CN(C)C(=O)N[C@H](C(=O)N[C@@H](Cc2ccccc2)C[C@H](O)[C@H](Cc2ccccc2)NC(=O)OCc2cncs2)C(C)C)cs1,,,human,100 mg twice daily,,colchicine Cmax increase,184%
O=S1OCC2C(CO1)C1(Cl)C(Cl)=C(Cl)C2(Cl)C1(Cl)Cl (centres unmarked),"MDR1, human",,B16/F10 overexpressing human MDR1,micromolar,,MDR1 inhibition,inhibited
COC(=O)[C@@H]1[C@H]2CC[C@@H](C[C@@H]1O)N2C,monoclonal antibody,binding,,room temperature,,Kd,10 to 100 µM
